# Experimental data gathered from unrelated publications.
# A part holds a random share of what one study measured. Positions count from the first letter of the parent shown.

# Sample 1
# Target: TAR DNA-binding protein 43, full length, His tag (TARDBP, Homo sapiens, UniProt Q13148, residues 1-414)
# Technique: RNA Bind-n-Seq
# Form: RNA
# Medium: in vitro
# Tested at: 20 nM
# Setting: 6-mer, flanks averaged, single round
# Added: 150 mM KCl
# Baseline: input library
# Reading: higher = stronger binding
Strand,6-mer enrichment (R)
CGAGGA,1.49
CACUCC,0.598
CCGACU,0.636
GAGCUU,0.747
CGGAAA,0.856
CUUAGG,0.866
AUGGGA,2.06
GUCGCC,0.849

# Sample 2
# Target: PABPC1L2, full length, GST fusion (mouse, UniProt A0ABA7IW68)
# Technique: RNAcompete
# Form: RNA
# Medium: in vitro
# Tested at: 20 nM
# Setting: 7-mer, probes averaged, single round
# Baseline: mean of 7-mers
# Reading: higher = stronger binding
# Target sequence (chain): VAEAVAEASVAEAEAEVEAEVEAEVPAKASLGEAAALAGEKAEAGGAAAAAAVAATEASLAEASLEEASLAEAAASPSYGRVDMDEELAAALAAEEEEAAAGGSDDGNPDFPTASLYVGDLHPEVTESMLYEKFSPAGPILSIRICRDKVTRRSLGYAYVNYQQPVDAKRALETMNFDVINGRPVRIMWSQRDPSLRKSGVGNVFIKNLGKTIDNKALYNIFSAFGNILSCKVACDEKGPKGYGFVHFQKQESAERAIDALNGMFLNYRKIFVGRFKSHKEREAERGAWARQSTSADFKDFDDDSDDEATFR
Strand,7-mer Z-score
CCUGACA,-0.121
CGUCUCA,-0.364
AUUUCAU,-0.202
CGGGGAG,0.341
GUACGGA,0.173
CAUAAAA,5.37
GUCAUUG,-0.34
CAGAGAA,0.334

# Sample 3
# Target: CREB3L3, bZIP domain (human)
# Technique: DHFR protein complementation
# Medium: yeast
# Setting: single substitutions, most at no-binding floor
# Baseline: wild-type JUN-FOS pair
# Reading: higher = stronger binding
# Parent: JUN, bZIP domain (human); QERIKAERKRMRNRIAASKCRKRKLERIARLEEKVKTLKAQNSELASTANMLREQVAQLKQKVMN; partner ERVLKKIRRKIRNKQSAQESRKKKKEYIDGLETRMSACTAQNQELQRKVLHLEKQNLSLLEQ
Variant,binding fitness [natural log]
E54I,-1.46
A57G,-1.41
K39L,-1.34
E44H,-1.46
S43L,-1.47
S43G,-1.34
K36R,-1.33
V35W,-1.38

# Single results of other studies
# Parent: PafA, mature enzyme, eGFP fusion (Elizabethkingia meningoseptica, UniProt Q9KJX5); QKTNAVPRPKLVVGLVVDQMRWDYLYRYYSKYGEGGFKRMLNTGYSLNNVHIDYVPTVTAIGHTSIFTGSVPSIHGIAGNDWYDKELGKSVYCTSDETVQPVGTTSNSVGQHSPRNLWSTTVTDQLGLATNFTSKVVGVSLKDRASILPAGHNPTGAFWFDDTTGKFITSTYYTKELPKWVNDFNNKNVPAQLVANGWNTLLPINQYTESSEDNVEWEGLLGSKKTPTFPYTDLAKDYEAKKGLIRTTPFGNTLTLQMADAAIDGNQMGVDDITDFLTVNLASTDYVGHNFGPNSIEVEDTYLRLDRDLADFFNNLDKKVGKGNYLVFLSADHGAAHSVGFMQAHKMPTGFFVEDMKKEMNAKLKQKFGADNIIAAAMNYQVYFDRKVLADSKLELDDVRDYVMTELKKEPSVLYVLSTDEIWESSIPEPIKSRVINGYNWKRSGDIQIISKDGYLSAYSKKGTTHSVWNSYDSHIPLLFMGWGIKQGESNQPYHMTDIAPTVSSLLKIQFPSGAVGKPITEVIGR
Variant,target,test,test system,setting,how to read,endpoint,value
S146G,"vanadate, free oxyanion",microfluidic competitive inhibition,"in vitro, cell-free expressed","not given, derived from inhibition constants, unchanged parent 676 nM",lower = stronger binding,oxyanion analog dissociation constant,1.15 µM

# Repeated from above (sample 1):
Strand,6-mer enrichment (R)
CGAGGA,1.49
AUGGGA,2.06
